Published values collected from several papers.
Protocols differ between the studies behind these lines. Several values in a cell are separate wells, animals, samples, runs or records. Numbers after ± are the reported error.

With `COC1OC(C)C(O)C(OC2OC(C)C(O)C(OC3OC(C)C(O)C(OC4OC(C)C(O)C(OC5OC(C)C(O)C(OC6OC(C)C(O)C(OC7OC(C)C(O)C(OC8OC(C)C(O)C(OC9OC(C)C(O)C(OC%10OC(C)C(O)C(OC%11OC(C)C(O)C(OC%12OC(C)C(O)C(OS(=O)(=O)O)C%12OS(=O)(=O)O)C%11OS(=O)(=O)O)C%10OS(=O)(=O)O)C9OS(=O)(=O)O)C8OS(=O)(=O)O)C7OS(=O)(=O)O)C6OS(=O)(=O)O)C5OS(=O)(=O)O)C4OS(=O)(=O)O)C3OS(=O)(=O)O)C2OS(=O)(=O)O)C1OS(=O)(=O)O` (stereo not drawn) the thrombin time was 10.5 ± 0.3 s (human plasma; 128 µg/mL).
`O=c1c(-c2ccc(Cl)c(CN3CCOCC3)c2)coc2cc(O)ccc12`: tumour weight “decreased” (castrated mice, VCaP xenograft, DHEA pellets; oral, 10 or 30 mg/kg/day).
With `COC1OC(C)C(OS(=O)(=O)O)C(OC2OC(C)C(OS(=O)(=O)O)C(OS(=O)(=O)O)C2O)C1O` (stereo not drawn) the thrombin time was 9.3 ± 0.1 s (human plasma; 128 µg/mL).
With `Cc1ccc(N(O)/N=N/c2ccc(S(=O)(=O)Nc3nccs3)cc2)cc1` the inhibition was 30.8% (DPPH scavenging, absorbance; 180 µg/mL).
`NC[C@@H](C(=O)Nc1ccc(-c2cn[nH]c2)cc1)c1ccccc1` has an IOP of 29.8 mmHg (tonometry; NZW rabbit, magnetic bead-induced ocular hypertension; ocular, 0.1%, 6 h).
`COC1OC(C)C(OC2OC(C)C(OS(=O)(=O)O)C(OS(=O)(=O)O)C2O)C(OS(=O)(=O)O)C1O` (stereo not drawn) gave a thrombin time of 9.5 ± 0.3 s (human plasma; 128 µg/mL).
For `CC(C)(C)NCC(SS(=O)(=O)O)c1ccccc1` (stereo not drawn), “spleen weight decrease” read 22% (Swiss Webster mice, Schistosoma mansoni-infected; 100 mg/kg single dose on day 42 post-infection, perfusion day 56 post-infection; reference: vehicle).
For `COc1cc2c(NC3CCN(C(C)C)CC3)cc(N3CCOCC3)nc2cc1OCCCN1CCCC1`, “normalised protein abundance” read -0.062 and -0.0892 and -0.0827 and -0.0683 and -0.0717 and -0.0822 and -0.08 (TMT quantitative proteomics, item: GOT1 (cytoplasmic); FAD AD model mice, hippocampus; dose not given).
With `CC(=O)[O-].O.O.[O-]c1ccc(Br)cc1C=NCCN1CCOCC1.[Zn+2]` the inhibition was 40.2% (DPPH radical scavenging; 160 µM).
`COc1cc(N2CCN(C(=O)C3CCCN3)CC2)ccc1Nc1ncc(Cl)c(Nc2ccccc2P(C)(C)=O)n1` (stereo not drawn) gave a tumour volume of 61.4 mm3 and 53.1 mm3 and 59.9 mm3 and 50.8 mm3 and 92.6 mm3 (nude mice, NCI-H3122 xenograft; intraperitoneal, 10 mg/kg every other day, day 9).
`CCCCCc1ccc(S(=O)(=O)N2CC2C(=O)OC)cc1` (stereo not drawn): “tumour growth inhibition” 68% (mouse, Lewis lung carcinoma; intraperitoneal, 5 mg/kg, 16 doses, day 11).
`CN1CCC[C@]1(C)/C=C/S(=O)(=O)NC(=O)Nc1c2c(cc3c1CCC3)CCC2` gave an IL-1β inhibition of -70.8% (human, whole blood ex vivo; 12.5 mg twice daily, day 19, 108 h, multiple ascending dose, added: LPS and ATP).
`COC1OC(C)C(OC2OC(C)C(OS(=O)(=O)O)C(OC3OC(C)C(OC4OC(C)C(OS(=O)(=O)O)C(OC5OC(C)C(OC6OC(C)C(OS(=O)(=O)O)C(OC7OC(C)C(OC8OC(C)C(OS(=O)(=O)O)C(OC9OC(C)C(OC%10OC(C)C(OS(=O)(=O)O)C(OC%11OC(C)C(OS(=O)(=O)O)C(OS(=O)(=O)O)C%11O)C%10O)C(OS(=O)(=O)O)C9O)C8O)C(OS(=O)(=O)O)C7O)C6O)C(OS(=O)(=O)O)C5O)C4O)C(OS(=O)(=O)O)C3O)C2O)C(OS(=O)(=O)O)C1O` (stereo not drawn) — result for “thrombin time prolongation”: 1 fold (human plasma; 128 µg/mL; reference: control).
For `COc1cc(O)ccc1CCC(c1ccc(O)cc1)c1cc2c(c(C)c1O)OC(c1ccc(O)cc1)CC2` (mixture of isomers), the PGE2 level was 26 ± 3 pg/mL (human blood; 1 µM, added: A23187).
Under “thrombin time prolongation”, `COC1OC(C)C(OS(=O)(=O)O)C(OC2OC(C)C(OS(=O)(=O)O)C(OC3OC(C)C(OS(=O)(=O)O)C(OC4OC(C)C(OS(=O)(=O)O)C(OC5OC(C)C(OS(=O)(=O)O)C(OC6OC(C)C(OS(=O)(=O)O)C(OC7OC(C)C(OS(=O)(=O)O)C(OS(=O)(=O)O)C7OS(=O)(=O)O)C6OS(=O)(=O)O)C5OS(=O)(=O)O)C4OS(=O)(=O)O)C3OS(=O)(=O)O)C2OS(=O)(=O)O)C1OS(=O)(=O)O` (stereo not drawn) is recorded as 1 fold (human plasma; 128 µg/mL; reference: control).
`COC1CN([C@H]2CC[C@H]([C@@]3(C)Oc4c(Cl)cc(C(=O)NCc5c(SC)cc(C)[nH]c5=O)c(C)c4O3)CC2)C1` — result for “log2 fold change”: 2.65 (RNA-seq, item: SPP1; human, whole blood; dose not given, 24 h; reference: pretreatment baseline).
`COC1OC(C)C(OC2OC(C)C(OS(=O)(=O)O)C(OC3OC(C)C(OC4OC(C)C(OS(=O)(=O)O)C(OC5OC(C)C(OC6OC(C)C(OS(=O)(=O)O)C(OC7OC(C)C(OC8OC(C)C(OS(=O)(=O)O)C(OC9OC(C)C(OS(=O)(=O)O)C(OS(=O)(=O)O)C9O)C8O)C(OS(=O)(=O)O)C7O)C6O)C(OS(=O)(=O)O)C5O)C4O)C(OS(=O)(=O)O)C3O)C2O)C(OS(=O)(=O)O)C1O` (stereo not drawn) has a thrombin time of 10.4 ± 0.2 s (human plasma; 128 µg/mL).
`O=C(N[C@@H](Cc1ccc(OCCCCC2CCNCC2)cc1)C(=O)O)c1nc2ccccc2o1.O=C(O)C(F)(F)F`: “aggregation impedance AUC” 10.9 a.u. and 7.3 a.u. (platelet aggregation, inhibitor, impedance aggregometry; human, whole blood, 1:1 saline; 150 nM, 6 min, 37 °C, added: ADP 20 µM; higher = more aggregation).

For quick reference, copied from above:
With `COC1OC(C)C(OS(=O)(=O)O)C(OC2OC(C)C(OS(=O)(=O)O)C(OS(=O)(=O)O)C2O)C1O` (stereo not drawn) the thrombin time was 9.3 ± 0.1 s (human plasma; 128 µg/mL).
